Results gathered from unrelated publications.
Each numbered part is a random draw from the data of one study; scales do not carry over between parts.
Chain of UniProt Q13177 (whole entry, looked up): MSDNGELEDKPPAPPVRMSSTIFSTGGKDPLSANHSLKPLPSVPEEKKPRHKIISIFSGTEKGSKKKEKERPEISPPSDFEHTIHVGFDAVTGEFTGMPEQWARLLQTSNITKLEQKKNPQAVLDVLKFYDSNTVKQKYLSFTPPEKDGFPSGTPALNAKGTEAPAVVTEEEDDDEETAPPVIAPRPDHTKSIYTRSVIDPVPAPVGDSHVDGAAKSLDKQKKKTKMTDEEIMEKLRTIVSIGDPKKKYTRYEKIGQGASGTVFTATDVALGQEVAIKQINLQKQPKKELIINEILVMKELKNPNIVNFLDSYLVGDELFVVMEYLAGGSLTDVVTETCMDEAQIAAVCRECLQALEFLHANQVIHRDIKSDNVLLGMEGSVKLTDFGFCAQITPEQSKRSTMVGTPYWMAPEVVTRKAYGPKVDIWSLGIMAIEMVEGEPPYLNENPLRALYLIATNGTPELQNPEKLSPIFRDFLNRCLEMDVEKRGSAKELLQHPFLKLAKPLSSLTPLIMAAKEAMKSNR

Study 1
Target: Histone acetyltransferase KAT6A, both winged helices, GST fusion (KAT6A, Homo sapiens, UniProt Q92794, residues 1-181)
Technique: protein binding microarray
Form: double-stranded DNA, one strand shown
Matrix: in vitro
Concentration: not given
Notes: 8-mer, flanks averaged, mean of 2 arrays, mostly near background
Relative to: not given
Direction: higher = stronger binding
Target sequence (chain): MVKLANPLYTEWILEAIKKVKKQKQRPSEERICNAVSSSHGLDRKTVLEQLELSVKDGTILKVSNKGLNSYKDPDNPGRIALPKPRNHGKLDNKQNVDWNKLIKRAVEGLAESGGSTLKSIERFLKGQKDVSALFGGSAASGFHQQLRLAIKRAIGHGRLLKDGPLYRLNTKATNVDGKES
For `CCTTCTTA`, the E-score was -0.125.
The E-score of `GCAAACAC` is reported as 0.0273.
The E-score of `AGGCGCCA` is reported as 0.121.
The E-score of `ATGAACGC` is reported as 0.101.
`CAACTATC` has an E-score of -0.124.
The E-score of `AGGTCGTG` is reported as -0.173.
`ATGCACCG` has an E-score of -0.0348.
The E-score of `GTCCCCTA` is reported as -0.167.

Study 2
Target: PABPC1L2, full length, GST fusion (mouse, UniProt A0ABA7IW68)
Technique: RNAcompete
Form: RNA
Matrix: in vitro
Concentration: 20 nM
Notes: 7-mer, probes averaged, single round
Relative to: mean of 7-mers
Direction: higher = stronger binding
Construct (chain): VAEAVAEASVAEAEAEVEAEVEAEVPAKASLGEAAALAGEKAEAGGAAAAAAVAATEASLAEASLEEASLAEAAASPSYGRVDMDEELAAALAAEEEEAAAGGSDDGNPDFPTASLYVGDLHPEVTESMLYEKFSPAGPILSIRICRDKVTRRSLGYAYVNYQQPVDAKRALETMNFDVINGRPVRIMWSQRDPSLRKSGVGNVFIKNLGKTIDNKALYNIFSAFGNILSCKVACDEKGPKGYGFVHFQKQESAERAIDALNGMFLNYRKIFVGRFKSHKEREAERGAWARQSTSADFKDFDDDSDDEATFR
`UCUGAAA` has a 7-mer Z-score of 0.36.
The 7-mer Z-score of `UAUCCCG` is reported as -0.358.
With `AUUAACG` the 7-mer Z-score was -0.0156.
`CACGCCG` has a 7-mer Z-score of -0.32.
The 7-mer Z-score of `CGCUACA` is reported as -0.0808.
`GUAGGGG` gave a 7-mer Z-score of 0.0406.
The 7-mer Z-score of `AUGUUUC` is reported as -0.421.
The 7-mer Z-score of `CGAGUCU` is reported as -0.264.

Study 3
Target: Prothrombin, mature alpha-thrombin (F2, Homo sapiens, UniProt P00734)
Technique: aptamer microarray, sandwich
Form: DNA with 2'F-ANA
Matrix: in vitro
Concentration: 200 nM
Notes: whole 15-mer aptamer, many near background
With: Cy3 exosite-II aptamer, 400 nM
Direction: higher = stronger binding
Strand: GGTTGGTGTGGTTGG
Under “mean fluorescence intensity”, `2'F-ANA at 1 2 3 4 6 7 8 12 13 15` is recorded as 232 a.u.
Under “mean fluorescence intensity”, `2'F-ANA at 1 2 4 5 11 12 13` is recorded as 68.6 a.u.
`2'F-ANA at 3 5 9 11 12` — result for “mean fluorescence intensity”: 209 a.u.
`2'F-ANA at 3 6 11 12 13 14`: “mean fluorescence intensity” 514 a.u.
For `2'F-ANA at 3 8 9 10 11 14`, “mean fluorescence intensity” read 416 a.u.
Under “mean fluorescence intensity”, `2'F-ANA at 2 6 7 9 10 11 13 14` is recorded as 72.6 a.u.
`2'F-ANA at 1 2 3 5 6 8 9`: “mean fluorescence intensity” 71.6 a.u.
`2'F-ANA at 2 3 4 7 9 10 15`: “mean fluorescence intensity” 323 a.u.

Single results of other studies
`O=C(Nc1cccc(Nc2cc(Nc3cccc(C(F)(F)F)c3)ncn2)c1)C1CC1` has a remaining activity of 103% (Serine/threonine-protein kinase PAK 2 (PAK2, Homo sapiens, UniProt Q13177); enzyme activity, inhibitor; 0.5 µM; relative to: control).

Repeated from above (study 3):
Under “mean fluorescence intensity”, `2'F-ANA at 1 2 4 5 11 12 13` is recorded as 68.6 a.u.
For `2'F-ANA at 3 8 9 10 11 14`, “mean fluorescence intensity” read 416 a.u.
`2'F-ANA at 1 2 3 5 6 8 9`: “mean fluorescence intensity” 71.6 a.u.
Under “mean fluorescence intensity”, `2'F-ANA at 2 6 7 9 10 11 13 14` is recorded as 72.6 a.u.
